# Assay results of several laboratories.
# Lines come from different studies, so protocols differ. Numbers after ± are the reported error.
# Sequence of UniProt Q9NPD5 (whole entry, looked up): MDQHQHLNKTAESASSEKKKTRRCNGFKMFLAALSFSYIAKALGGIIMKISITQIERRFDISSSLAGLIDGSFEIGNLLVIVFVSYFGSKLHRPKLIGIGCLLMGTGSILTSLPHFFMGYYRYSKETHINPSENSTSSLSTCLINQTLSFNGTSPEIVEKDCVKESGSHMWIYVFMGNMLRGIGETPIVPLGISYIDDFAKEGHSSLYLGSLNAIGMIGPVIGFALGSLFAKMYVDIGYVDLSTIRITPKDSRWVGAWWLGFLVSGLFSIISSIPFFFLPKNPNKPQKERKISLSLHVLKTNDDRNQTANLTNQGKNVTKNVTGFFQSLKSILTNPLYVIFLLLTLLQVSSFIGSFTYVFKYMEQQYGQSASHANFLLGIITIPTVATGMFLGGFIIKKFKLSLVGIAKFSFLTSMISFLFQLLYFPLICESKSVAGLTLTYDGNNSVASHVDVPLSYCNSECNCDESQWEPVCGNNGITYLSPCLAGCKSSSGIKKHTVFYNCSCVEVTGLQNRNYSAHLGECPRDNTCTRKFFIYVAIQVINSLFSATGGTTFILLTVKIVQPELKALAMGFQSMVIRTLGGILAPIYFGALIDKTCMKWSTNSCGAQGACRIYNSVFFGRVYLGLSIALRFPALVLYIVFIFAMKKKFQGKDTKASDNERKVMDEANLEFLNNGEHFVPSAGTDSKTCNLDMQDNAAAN
SMILES,tested on,assay,test system,setting,scale,measurement,value
CCCC(=O)OCSc1ccccc1C(=O)NCCn1ccc(=O)c2cc(C)ccc21,CEM-SS,"cell viability, XTT",RPMI with 10% FBS,6 days,,TC50,33.9 ± 3.88 µM
CNCCOC12CC3(C)CC(C)(CC(Cn4ncc(-c5ccc(N6CCc7cccc(C(=O)Nc8nc9ccccc9s8)c7C6)nc5C(=O)O)c4C)(C3)C1)C2,,,"beagle dog, male, anaesthetised","intravenous bolus, 0.03 mg/kg, 5 min",relative to: baseline,heart rate change,8%
CCc1cc(C(=O)NC)c2nccc(N3CCc4c(cc(Cn5ccnc5)cc4-c4cn(C)nc4C(F)(F)F)C3=O)c2c1,,,Sprague Dawley rats,"oral, 50 mg/kg once daily, 7 days",,gastrocnemius weight,2.85 ± 0.032 g
CNC(=O)c1ccc(-c2cnc3ncc(Cc4ccc5ncccc5c4)n3n2)cc1F,,"item: Hypoalbuminemia, all grades",gastric cancer patients,"oral, 600 mg twice daily, expansion cohort, any causality",,patients with adverse event,0%
CC[C@H](C)C(=O)N1CCC(NC(=O)Nc2ccc(OC(F)(F)F)c(F)c2)CC1,Caco-2,Caco-2 permeability,,"10 µM, 60 min, pH 7.4 apical, 7.4 basolateral, replicate 1",apical to basolateral,percent recovery,47%
CC(C)c1nc(N(C)S(C)(=O)=O)nc(-c2ccc(F)cc2)c1/C=C/[C@@H](O)C[C@@H](O)CC(=O)O,"Solute carrier organic anion transporter family member 1B3 (SLCO1B3, Homo sapiens, UniProt Q9NPD5)","uptake, substrate",HEK293-A stably expressing SLCO1B3,2 min,,Vmax,330 ± 140 pmol/mg protein/min
Cc1cc(Nc2ccc(S(F)(F)(F)(F)F)cc2)n2nc(C(C)(F)F)nc2n1,Plasmodium falciparum,,"human malaria patients, plasma","oral, 250 mg, median",,Tmax,6 h
O=c1[nH]c(=O)c2[nH]c(=O)[nH]c2[nH]1,,"binding, MIDAS equilibrium dialysis LC-MS",A2AR-BRIL thermostabilized,concentration not given,relative to: no-protein control,log2 fold change,-0.0543
CCCC(=O)OCSc1ccccc1C(=O)NCCn1cc(C(=O)NCc2cccc(C)n2)c(=O)c2cc3c(cc21)OCO3,CEM-SS,"cell viability, XTT",RPMI with 10% FBS,6 days,,TC50,> 100 µM
O=C(Nc1nc2cccc(-c3ccc(CN4CCS(=O)(=O)CC4)cc3)n2n1)C1CC1,,item: first degree atrioventricular block,human rheumatoid arthritis patients,"oral, 75 mg once daily, 4 weeks, regardless of relatedness",,treatment-emergent adverse events,4.5%
Cc1c(-c2ccc(N3CCc4cccc(C(=O)Nc5nc6ccccc6s5)c4C3)nc2C(=O)O)cnn1CC12CC3(C)CC(C)(C1)CC(OCCNCC[C@H](O)CO)(C3)C2,,,anaesthetised male beagle dogs,"intravenous infusion, 0.3 mg/kg/min, 90 min",relative to: vehicle,systemic vascular resistance change,-7%
COc1ccc2[nH]cc(CCNC(C)=O)c2c1,,"binding, MIDAS equilibrium dialysis LC-MS",A2AR-BRIL thermostabilized,concentration not given,relative to: no-protein control,log2 fold change,0.116

# A few entries again:
SMILES,tested on,assay,test system,setting,scale,measurement,value
Cc1c(-c2ccc(N3CCc4cccc(C(=O)Nc5nc6ccccc6s5)c4C3)nc2C(=O)O)cnn1CC12CC3(C)CC(C)(C1)CC(OCCNCC[C@H](O)CO)(C3)C2,,,anaesthetised male beagle dogs,"intravenous infusion, 0.3 mg/kg/min, 90 min",relative to: vehicle,systemic vascular resistance change,-7%
COc1ccc2[nH]cc(CCNC(C)=O)c2c1,,"binding, MIDAS equilibrium dialysis LC-MS",A2AR-BRIL thermostabilized,concentration not given,relative to: no-protein control,log2 fold change,0.116
